Experimental data collected from several papers.
Numbered parts are unrelated; each lists some results of a single study.

Set 1 — technique: protein-binding microarray; form: double-stranded DNA, one strand shown; medium: in vitro; concentration: 940 nM top; setting: 60-bp whole probe; added: salmon DNA 0.4 mg/ml; reference: random background probes; direction: higher = stronger binding; shared flanks, not repeated: GCCTAGCAC … GTCTTGATTCGCTTGACGCTGCTG
Target: Interferon regulatory factor 5, full length, phosphomimetic (IRF5, Homo sapiens, UniProt Q13568-2, residues 1-514, S451D/S453D/S456D/S462D)
For `TTAGGAGTGGACTATCGGTTAGTGCTA`, “fitted relative affinity” read -0.0919 z-score.
`TCAGTTTTCTAATGTTTTACTGTGCTA` — result for “fitted relative affinity”: 0.997 z-score.
Under “fitted relative affinity”, `TTAGGACTGGACTTTCGTTTAGTGCTA` is recorded as 1.16 z-score.
For `CCCTTAAAAGACGTGCCAATGTGCTAG`, “fitted relative affinity” read 0.166 z-score.
`TCAGGCCTCTTGCTCAGACTGTGCTAG`: “fitted relative affinity” -0.355 z-score.
For `GACGGTTTCGGGAATGGGGACGTGCTA`, “fitted relative affinity” read 7.04 z-score.
For `TTAGGACTGTGGTATCGGTTAGTGCTA`, “fitted relative affinity” read 4.03 z-score.
For `TTAGGTATCGGTATCGGTAAGTGCTAG`, “fitted relative affinity” read 11.2 z-score.
Under “fitted relative affinity”, `TTCGAACTGAGTCTCGATTAGTGCTAG` is recorded as 2.85 z-score.
`TCAGGTTTCGACTTTCGGTTAGTGCTA` — result for “fitted relative affinity”: 8.47 z-score.
For `TCATTTTTTTTTTGGAAACTGTGCTAG`, “fitted relative affinity” read 0.622 z-score.
Under “fitted relative affinity”, `CCTTGTCCCCTCAGGTATGGGTGCTAG` is recorded as 0.125 z-score.

Set 2 — technique: protein binding microarray; form: double-stranded DNA, one strand shown; medium: in vitro; concentration: not given; reference: not given; direction: higher = stronger binding
Target: Histone acetyltransferase KAT6A, winged helix 2, GST fusion (KAT6A, Homo sapiens, UniProt Q92794, residues 85-181)
Setting: 8-mer, flanks averaged, mean of 2 arrays, mostly near background
Target sequence (chain): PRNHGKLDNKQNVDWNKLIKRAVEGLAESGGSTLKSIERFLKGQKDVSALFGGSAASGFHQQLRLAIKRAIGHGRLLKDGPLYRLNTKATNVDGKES
The E-score of `AAGGAACA` is reported as 0.168.
For `TAGGTACA`, the E-score was -0.0843.
`ATGCTCGA` has an E-score of 0.0727.
`AATTGTGC` has an E-score of 0.0203.
The E-score of `CCCCGATA` is reported as -0.0158.
For `GAGGCCGC`, the E-score was 0.0842.
`AATCACCC` has an E-score of -0.0488.
For `AGTGGATC`, the E-score was 0.0141.
`ATGGCTTC` gave an E-score of 0.0288.
For `GGGTACAA`, the E-score was -0.0389.
The E-score of `ATTTGAGG` is reported as -0.0102.
The E-score of `AATGGACC` is reported as 0.00903.
`ATTCCGAC` gave an E-score of 0.111.
`ACCAGCCT` has an E-score of -0.0372.
The E-score of `ACACGCCT` is reported as -0.0369.
`CTCCCGAA` gave an E-score of -0.0213.
With `CAGGCGGG` the E-score was 0.222.

Set 3 — technique: competition protein-binding microarray; form: double-stranded DNA, one strand shown; medium: in vitro; concentration: 2 µM; added: Pho4 competitor, 0.05 µM; direction: higher = stronger binding; shared flanks, not repeated: … GTCTTGATTCGCTTGACGCTGCTG
Target: Centromere-binding protein 1, full length, His-tagged (CBF1, Saccharomyces cerevisiae, UniProt P17106, residues 1-351)
UniProt P17106, sequence (whole entry, looked up): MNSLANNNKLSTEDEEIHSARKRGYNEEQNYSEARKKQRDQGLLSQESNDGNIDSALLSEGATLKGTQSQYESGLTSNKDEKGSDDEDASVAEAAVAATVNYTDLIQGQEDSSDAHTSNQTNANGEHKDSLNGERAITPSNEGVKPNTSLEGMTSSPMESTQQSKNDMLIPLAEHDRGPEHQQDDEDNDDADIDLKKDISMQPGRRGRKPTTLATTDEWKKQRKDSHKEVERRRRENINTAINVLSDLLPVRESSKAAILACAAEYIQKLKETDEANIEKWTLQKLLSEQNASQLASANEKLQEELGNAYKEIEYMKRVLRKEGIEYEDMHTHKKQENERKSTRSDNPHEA
Setting: whole 60-bp probe, lowest competitor level
With `CGTTATTGATATCGGCACGCAATGGTACTGGGGCAA` the fluorescence intensity was 67.3 a.u.
`GTCTTGTCTCATTGTTAGGTGGGTGTCCCCACTTCA` gave a fluorescence intensity of 100 a.u.
For `CATACCCAACCTTGCTCCGTGGGTGAAGATATTTGT`, the fluorescence intensity was 60 a.u.
`CGATTGGAAACCCGTCACGTGGAAGTGAGTCTATTA` gave a fluorescence intensity of 3280 a.u.
With `TAGCCGCTAAGGGTAGACATGACGCTGCTGTTCATC` the fluorescence intensity was 60.9 a.u.
`GGTGGGCTATACTTCCGTGTGACGGATTTCACAAAG` gave a fluorescence intensity of 102 a.u.
With `CAACCGGCCTAGCATCACATGCTGATACCACTTGTA` the fluorescence intensity was 288 a.u.
`GTTTTGAATTCCCATCACAAAGGTTGACGAGCCGGC` has a fluorescence intensity of 56.3 a.u.
`GAAACAATATAACAGCACGTGTTGGAACGGTACACA` has a fluorescence intensity of 2070 a.u.
The fluorescence intensity of `TTCACTAGGCAAATCCACGTGCTTTAGCATTTCCAT` is reported as 1030 a.u.
`TTCAGACAAATCCAACATGTGGGAGGAGAATAATGG` has a fluorescence intensity of 92.3 a.u.
`AAGCCCAGATACAATCACCTGTAGAAAGAAACAAAG` gave a fluorescence intensity of 91.8 a.u.
For `GTAATAGTACCTTAACACATGACGAAGATGAAAATT`, the fluorescence intensity was 370 a.u.
The fluorescence intensity of `TGCCTCTGCGCTTTGCACGTTCAAAAGAAAAGCATA` is reported as 91.7 a.u.
For `CATACCCAACCTTGTCACAATACTTAAGATATTTGT`, the fluorescence intensity was 97.6 a.u.
`GAGCTTCTACTAAATAACGAGCAAGCAAGGGACGCT` has a fluorescence intensity of 70.7 a.u.

Single results of other studies — organism: Saccharomyces cerevisiae; effect on: binding; technique: competitive growth deep sequencing; form: peptide; strain: cyclin D3-Cln2 fusion strain; concentration: concentration not given; direction: direction not given
Under “growth enrichment score”, `KRNLLNEFDRII` is recorded as -0.227 (tiling library, Cln2 subtracted).
For `APPRKALFTYPKG`, “growth enrichment score” read -0.0653 (Cln2 score subtracted).
Under “growth enrichment score”, `PSSMRKICTYFHR` is recorded as 0.0917 (peptide library 2).

Repeated from above (set 2):
The E-score of `CCCCGATA` is reported as -0.0158.
For `GAGGCCGC`, the E-score was 0.0842.
`AATCACCC` has an E-score of -0.0488.
For `AGTGGATC`, the E-score was 0.0141.
